Published values of several laboratories.
Parts stem from different laboratories: compare values within a part only.

Study 1 — method: RNA Bind-n-Seq; form: RNA; matrix: in vitro; concentration: 365 nM; baseline: no-protein control; direction: higher = stronger binding; endpoint: RBNS enrichment (R)
Target: RNA binding protein fox-1 homolog 2, RRM domain, GST-SBP tag (RBFOX2, Homo sapiens, UniProt O43251-10, residues 100-194)
Notes: natural RNA segment, single round, ends assumed
Constant ends, left off below: GGGAGUUCUACAGUCCGACGAUC … UGGAAUUCUCGGGUGCCAA
Target sequence (chain): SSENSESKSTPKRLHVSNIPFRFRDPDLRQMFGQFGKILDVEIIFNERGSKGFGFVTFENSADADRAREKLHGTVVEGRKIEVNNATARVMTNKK
UGGGUCAACGAGGAGGACCACCUGCGGGUCAUCUCCAUGCAGAAGGGGGGCAACAUGAAGGAGGUGUUCACCCGCUUCUGCACCGGCCUCACCCAGAUUGAAACUCUCUU: 0.413
UCUCUUCGGGCCAGCCCGGUGCCACGGUCACAUGGGGGAAGACUUCAGCCACAGCUGUGAGCAGCUCUCUGCCAGCUAUGUGGCCAGGGACCACAAAACUACCAUGUGAG: 0.192
UGGCUCGAGGUAAACCCUUUUCAAGGAAAAACAACUCUAGGAUUUCUUUUUUCUGUGUACGUAGACCAGUCCCAUCAGUGUAUAAUCUCUCUCUCACACGCCUCUCUCCA: 0.776
UCUGCACUUUGCCCCCUGUCUCAAAAAUGUCCCUCAUGUCCAUUUCCUGUCCAGGAGACUCAUGAGGACUGUGUGACCUGCACAAGCCCACACCUGGGCAGGCUGUUGGU: 0.256
UGGUUUGGGGAGGUCUGUUUGUUACAUAAAAAGGACCUUUCGGUGUAAGAAAUUGCCGUUUUUACCCUGCCCUGGCUGGCAUGUGAGAAGCCAUGGAAGGUUGUGGUUGU: 19
AGUUCACGGGUCAGCAGUGGCAGCUCGACCCACUCGCAAACACUUCACGGAUACACCAGCAGUGUUGGGAUAGGAGCAGCCAGGCCUCAGCAGGAGGGACCAGGGCCGAC: 0.472
GGCCUGCUGGGCUCUCCACCUCAGCCUUGGAUAAUGCUGUUGCCUCAUCUAUAACAUGCAUUUGUCUUUGUAAUGUCACCACCUUCCCAGCUCUCCCUCUGGCCCUGCCU: 0.711
CUUAAAACUGCCGAGCCCCACUCCAUGUAAUAGGAUUCCUGGGCUUCCUCAAUGGGGGUUCAUGUUCUUGGACUGCGGGCCCUCAGUCCUUAACUGGAAAGUGACCGUCC: 0.239
UUCACAUUUCAUUUUUUCUUAGCACAUGUUGAUAAAAUAGUCACAAGGAGAAAUUACCAGUUACGGUUUAUUAAAUCUCUUUUAAAAUGCAGUCAAGGAAAACUAGCCUU: 0.53
CAAGUGCAUUGAUAUGUGAAGUAGAAUGAAUUGCAGAGGAAAGUUUUAUGAAUAUGGUGAUGAGUUAGUAAAAGUGGCCAUUAUUGGGCUUAUUCUCUGCUCUAUAGUUG: 4.65
CUUCCUCUAGAAUGUUCAUUUUAUGAGAUCGCUAUCUGUAAGUCCAGUUGGAUUACAGGAAUACUUGAAAGUUACUUUCUACCACUAUUAGAAAAUAUGAAGUCGCAUGC: 1.6
UCCUGGAGCUAAUACACUGUUUCACUGCCUCUGCCAUAUAAUGAUGCCAGCACUAGCCAGCUGGUGGGUAUUUGGAGGAAUCCUGCAUGAGGAUUGCCCAAUAAGGGGCA: 2.2

Study 2 — method: RNA Bind-n-Seq; form: RNA; matrix: in vitro; concentration: 100 nM; baseline: input RNA pool; direction: higher = stronger binding; endpoint: bound/input enrichment
Target: RING finger protein unkempt homolog, zinc fingers 1-6, SBP tag (UNK, Homo sapiens, UniProt Q9C0B0, residues 30-357)
Chain of UniProt Q9C0B0 (30-357, looked up): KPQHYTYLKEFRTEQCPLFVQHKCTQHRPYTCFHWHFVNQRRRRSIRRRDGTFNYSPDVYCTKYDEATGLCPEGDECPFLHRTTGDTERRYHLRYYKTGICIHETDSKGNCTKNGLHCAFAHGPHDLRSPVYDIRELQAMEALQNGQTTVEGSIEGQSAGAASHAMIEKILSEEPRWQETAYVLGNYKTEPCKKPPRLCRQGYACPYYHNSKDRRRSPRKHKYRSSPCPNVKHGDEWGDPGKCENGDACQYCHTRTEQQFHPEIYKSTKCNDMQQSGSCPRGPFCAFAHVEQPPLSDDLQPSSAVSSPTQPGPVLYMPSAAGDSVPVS
Notes: RNA with constant flanks, vertebrate orthologous sites, ends assumed
Constant ends, left off below: GGGAGUUCUACAGUCCGACGAUC … CAACAGAGGAUUGAGCAUCA
CUCUCCGUUACCCCUAAGGUAGAACUUUUUAAAAUUGUAUCACCGCCACUUCUAAAAAUUUAGCAAUAUUGGAAGAAAACGCUAAUGAAGAAAUUUUGCUCAUUGUUUUGCAAACCAAAU: 0.784 ratio
AUUUUUUAAAGUUUUUUUAAUUUAAGUUUUCCUUUUGGGGGUAAAGUUUGCUCUACCAAAUAGUGAUUGUAACAAAUUGAUCUGUUUUGGAUGUUGCUAUAGUGACAUGCAGUUAUAUAU: 0.681 ratio
AGAAAAUUUUAACCAGGAAUCUGAAGGUAGACACACAGGACCAUGGUUAUCGUCCUCACUUAGAAAUAGAUGCACACCUUUGUUCUCUAGAAGGAGGAGAGAAGGAAGAGAUGAAUCCUC: 0.534 ratio
GCGGCCGGUGGGGGGUUGUCGCCCACCCUGGCCUUGCCUCCCCUCCCUGCCACCUACCCCUUGUUAUUUUUUUUUAACCACCAUGUGAUUAAGGUCAGCGCUGCCUCCCCCGACCUGCUC: 1.24 ratio
GGGAUAUAUUGAAUAGUAUUAAACAUUUUCAUCUUCCUUUACCUUUUAUCCCUUAAUAUCUAGUCUACUUUUUUAAAUUUCAGACUUCAAUGCUCUUUGAAUUGAUAAUUCCAAUUUUCA: 1.6 ratio
GUAUUAGUGUCCUACCAGCCUGCCAACUCUCAUCUGUGCACAGCUUCCAGUGUUAGGGUCUAGCUAGAUUUUUAUUUAAAAUAUGAACAACUGCUUUUCCCAAGGUGUUUUUUUAGGGGG: 2.27 ratio
CCGGUUGUAUGUGCAUUAUCCACAUUCCUCUCUGUUGUGUUUGGGGACAAAAAAGACAUUUUAGCCUUUUUUAAGGUUAUUGUUUAAUUUAAUGUUAUUUGGUUGCAUGAAGUUGCCCUU: 0.43 ratio
ACACUCUUCUACUUAAACUGCUAUUUUCAAACAAUAGAAACCUAUUUUUUUUUUUUACAGUUUAGUAUCUGGUUUCUACAUGGAAGACUAAACCCCGUGCUUAUAGCUAAAUGUGGUCUU: 0.462 ratio
GUGACUUUGGACGUCCGCUCGGCCGGGUUGCCGAAGCUGCCUGGUGUGUGUCGUGCGCUCGUUCCGCUGUCUGUGGAGGUAGGCCUCUGCCGCAAACAUGCUCCGUCAGAUCCUCGGGCA: 0.344 ratio
AGAAAACUUUAGCCAAGAAUCUGAAAGUAGAAAUACUGGUUCCUGGUUGUCCUCCUCUCUAAGAAAUAGAUGCACACCCUUAUUUUCAAGGAGACGUCGAGAAGGAAGAGAUGAGUCUAC: 0.273 ratio
UUCCUUUUUCUAUUUUUUUUUCUUUCGUUCUUUCUUUUUUUUCCUUUUUUUUCUUUUUUGUAGUUGUUGUUACCCACGCCAUUUUACGUCUCCUUCACUGAAGGGCUAGAGUUUUAACUU: 6.03 ratio

Study 3 — method: EMSA with sequencing; form: double-stranded DNA, one strand shown; matrix: in vitro; concentration: 10 and 20 nM; baseline: negative control set to 0; direction: higher = stronger binding; endpoint: normalised bound fraction
Target: Hepatocyte nuclear factor 3-alpha (Foxa1, Mus musculus, UniProt P35582, residues 1-468, full length assumed)
Notes: whole designed probe, mean of two concentrations, ends assumed
Constant ends, left off below: GTGAGCGGTGCCCATTGATGGGGAAC … TTTCACTGGGATCGTGGGGAC
Target sequence (chain): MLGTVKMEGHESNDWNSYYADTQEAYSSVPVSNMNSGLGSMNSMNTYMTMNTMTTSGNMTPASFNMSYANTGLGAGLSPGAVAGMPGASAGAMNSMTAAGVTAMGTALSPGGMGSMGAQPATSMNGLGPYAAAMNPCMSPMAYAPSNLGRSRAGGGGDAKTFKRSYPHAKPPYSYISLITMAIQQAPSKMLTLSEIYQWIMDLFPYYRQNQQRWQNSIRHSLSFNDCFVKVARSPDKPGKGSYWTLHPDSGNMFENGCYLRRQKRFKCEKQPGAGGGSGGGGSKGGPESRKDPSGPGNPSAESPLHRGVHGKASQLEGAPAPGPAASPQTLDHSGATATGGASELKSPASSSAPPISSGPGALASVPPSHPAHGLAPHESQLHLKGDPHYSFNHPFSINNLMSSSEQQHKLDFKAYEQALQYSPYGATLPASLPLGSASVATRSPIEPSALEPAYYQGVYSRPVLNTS
TCCCTTTGTTCTACTCCTATACTCAAGTAATTCTGGAACACAGGCCATTTCACAAAGATTCTCTTCCCTATACACCAAAATTACCTTTATTTCTAGATTACTTAGCAAGCTTCTACATATCATTTCAGGTTTAGTTCTAACAAGCCTTTTCTTATGAACCTTTGTTTGATCTTCCTCCCTCCATCCTCTCCTT: 0.136 ratio
ATCTTCCCCCTCTTCCTTGCCCCACCAGCTCACCTTCCCGGGTTATTTGCAGATAGGAAAATAAATAAAGCCGGCATTCGTTAACCCTCTTCACGCGCATACTGCACATTGGTCTGGATCTAACATGGTCCTTTGGCGACGCCAGGCTCCGGGAGAGCAAAGCACCGTGTCAGGGCCATGATCCGGGGTGGCC: 0.344 ratio
TCGGCCAGCCTGGCTTCTGCGCCCCGCCAGGAGGTCGCGGAGCGGAGCGCGGCCAGGAAGTGAGCTGAGAGTGACAGCTCCCCCCACGCTGTTTGTTTATTCTCTCCACACAATGACTCATTCCTGGCTCTTCTTTCTTTCGGGAGGAGGGGAGAAAGGAGCGGGAGGGCGGGCGGGCAGGGGAGAGGCAGGC: 0.322 ratio
AAGTTGAATTGCTTGTCACGTACCATAGACTGAGGTCTGTGGCTGCAGTTGCCTGCCATTTCAGACAGATGATTCATCTTATAAACAGATTATGTAAATATGTTATTGATAAATACAGTATGGTACTGTAAATGTATTTTCTCTTTATGATTTTCTTTAAAATATTTTTCTTTCTCGGCCAGCACTTTGGGAG: 0.289 ratio
CAGATTGCTCAGAACCCTTCTCCCCACTTCCCCTCACCCTTTGGACCCTGGAACACACCAGGCCCATTCCTGAGGGCTTGAGAGCTGGGATCTCAGATTACTCAGATAGGTTGTGCTGTCCTGGCCCTAAGGGCCCTAAGGGCTCTGCCTTCTGGGAGGTCCCTGAGCTGGTGCCAGGATGGGCAGTGGGCTG: -0.0799 ratio
CTGCAGCACTACAGCCCCTTTCTAGGACATCCCTGAAGGATGCAGTGAAGGGAAATCTTCCCAGTGGGCAGAACTTCCAGCAGTGCACCTGGTTGTGTACTTTGCATGGAAGGAGAAATAATCAAATGTGTGATTACATACTGATTCATGGGCTGCAGCCAATGGTTTGGCTGGATGGTCAGGGAGGTCATTC: 0.112 ratio
ACCCGCGTGCAAGGGGACCGAGCCCCGGGAAGGGGAAGAACTTGTAATCGCTTGCAGCGGGACAATGTCGACTTTTGAACCTCTAACCACTAAGCAATCTACCCATGTGCTCTTGCTCCACTGTCCAAACAGGGTTTATTGACAGGCGTTTCACGGCAACGCATAGCAACCCCGGCGGCTAGGGGGCGGGCCT: 0.0381 ratio
ATTATTTCATTATACAAATATAAATGTCATTCTTTGATTTTAGAAGAAATCATGATATGTCATTCTATTGAGTGCTAACTAAAAGTTCCCTTTGTTTACTTAGCTTTCTCTTAGTCATAAGAAAGAAGAAGATCTCTTGCGTGAAAACAGCATGTTGCGGGAAGAAATTGCCAAGCTAAGACTGGAACTAGAT: 0.541 ratio

Study 4 — method: protein binding microarray; form: double-stranded DNA, one strand shown; matrix: in vitro; concentration: not given; baseline: not given; direction: higher = stronger binding; endpoint: E-score
Target: Histone acetyltransferase KAT6A, both winged helices, GST fusion (KAT6A, Homo sapiens, UniProt Q92794, residues 1-181)
Notes: 8-mer, flanks averaged, mean of 2 arrays, mostly near background
Residues (chain): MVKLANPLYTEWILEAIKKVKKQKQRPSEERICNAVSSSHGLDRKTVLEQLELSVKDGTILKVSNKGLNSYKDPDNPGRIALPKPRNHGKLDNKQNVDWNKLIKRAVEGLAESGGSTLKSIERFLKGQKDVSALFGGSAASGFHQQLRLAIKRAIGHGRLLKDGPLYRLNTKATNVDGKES
GGATCGCC: 0.0155
CGGTCGAG: 0.101
GCGATAAA: 0.0527
AATCCCTG: -0.227
AGGTATGA: -0.129
TCGGGACA: -0.0428
ATAGTCCC: 0.00162
TACCCCCA: -0.249
CTGGCTAA: -0.153
CCATCGAC: -0.128
CCCTCTCG: -0.143
CTAGGGGC: -0.122
AAACCCTG: -0.147
ATCGGTTA: 0.178
GCGTACTA: 0.221
CCGCGACC: 0.206
CGAATACG: 0.153
AGTACACA: 0.0363
ACGGAAAG: 0.217
CCGCTTTC: 0.199
AGGCATGG: -0.0649
ACAACATA: -0.0104
ATCTGAAC: -0.0296
GTAAGATA: -0.0172

A few entries again (study 4):
CCATCGAC: -0.128
ATCTGAAC: -0.0296
AGGCATGG: -0.0649
